Assay results collected from several papers.
Every numbered part comes from another study and shows a few of its results, in no order. Values joined by “and” are separate records of one study, mostly repeats; a detail may differ.
UniProt P21917, sequence (whole entry, looked up): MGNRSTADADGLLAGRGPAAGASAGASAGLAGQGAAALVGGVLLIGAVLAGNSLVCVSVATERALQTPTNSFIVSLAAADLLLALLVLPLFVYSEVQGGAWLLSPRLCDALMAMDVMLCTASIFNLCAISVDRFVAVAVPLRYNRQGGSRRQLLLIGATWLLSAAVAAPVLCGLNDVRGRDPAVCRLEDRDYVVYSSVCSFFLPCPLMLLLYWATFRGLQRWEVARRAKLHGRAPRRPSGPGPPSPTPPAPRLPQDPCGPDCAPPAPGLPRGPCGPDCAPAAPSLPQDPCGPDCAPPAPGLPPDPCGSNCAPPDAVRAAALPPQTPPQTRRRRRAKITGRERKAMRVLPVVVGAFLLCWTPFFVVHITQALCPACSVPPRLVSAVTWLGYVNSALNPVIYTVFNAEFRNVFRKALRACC
UniProt P08913, sequence (whole entry, looked up): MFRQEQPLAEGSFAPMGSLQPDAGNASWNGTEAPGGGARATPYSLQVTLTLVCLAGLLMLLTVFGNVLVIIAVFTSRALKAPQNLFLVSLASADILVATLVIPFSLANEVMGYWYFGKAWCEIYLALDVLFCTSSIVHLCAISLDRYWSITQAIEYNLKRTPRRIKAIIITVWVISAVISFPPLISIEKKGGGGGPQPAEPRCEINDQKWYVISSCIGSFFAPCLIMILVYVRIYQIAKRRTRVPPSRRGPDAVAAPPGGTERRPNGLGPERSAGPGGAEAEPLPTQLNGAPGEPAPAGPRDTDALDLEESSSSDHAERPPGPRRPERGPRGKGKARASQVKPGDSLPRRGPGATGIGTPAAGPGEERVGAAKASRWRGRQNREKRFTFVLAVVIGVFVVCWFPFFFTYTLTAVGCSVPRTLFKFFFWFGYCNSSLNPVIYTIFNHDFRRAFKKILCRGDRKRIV
UniProt P50406, sequence (whole entry, looked up): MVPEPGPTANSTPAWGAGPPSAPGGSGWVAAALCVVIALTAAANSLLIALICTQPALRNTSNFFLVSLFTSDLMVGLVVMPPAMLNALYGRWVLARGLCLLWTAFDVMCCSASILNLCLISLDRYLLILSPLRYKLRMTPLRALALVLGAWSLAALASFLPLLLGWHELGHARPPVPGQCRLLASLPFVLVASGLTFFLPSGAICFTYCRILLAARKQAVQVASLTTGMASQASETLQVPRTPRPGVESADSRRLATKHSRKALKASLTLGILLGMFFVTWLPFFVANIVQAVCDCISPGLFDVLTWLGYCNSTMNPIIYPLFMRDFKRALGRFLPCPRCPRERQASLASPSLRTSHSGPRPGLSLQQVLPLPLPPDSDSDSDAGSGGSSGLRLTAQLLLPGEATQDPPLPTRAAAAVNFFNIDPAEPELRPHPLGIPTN
UniProt Q5BJF2, sequence (whole entry, looked up): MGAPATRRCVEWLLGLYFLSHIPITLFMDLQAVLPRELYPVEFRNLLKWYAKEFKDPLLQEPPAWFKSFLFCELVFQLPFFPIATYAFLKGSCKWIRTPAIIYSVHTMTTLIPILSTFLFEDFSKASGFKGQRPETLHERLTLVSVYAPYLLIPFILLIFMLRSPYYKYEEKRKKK
UniProt Q9Y5N1, sequence (whole entry, looked up): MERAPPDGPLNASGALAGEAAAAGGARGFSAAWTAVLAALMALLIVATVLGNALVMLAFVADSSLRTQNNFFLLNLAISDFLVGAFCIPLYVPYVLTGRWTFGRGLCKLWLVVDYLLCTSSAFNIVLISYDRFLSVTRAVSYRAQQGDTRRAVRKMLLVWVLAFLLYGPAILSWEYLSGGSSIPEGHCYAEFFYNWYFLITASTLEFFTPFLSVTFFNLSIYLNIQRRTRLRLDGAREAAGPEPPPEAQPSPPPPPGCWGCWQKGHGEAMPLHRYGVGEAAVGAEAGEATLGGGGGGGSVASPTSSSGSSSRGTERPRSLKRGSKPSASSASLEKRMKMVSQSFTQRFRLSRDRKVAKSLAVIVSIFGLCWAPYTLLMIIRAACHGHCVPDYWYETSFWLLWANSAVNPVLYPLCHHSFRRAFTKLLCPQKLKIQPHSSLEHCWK
UniProt P41595, sequence (whole entry, looked up): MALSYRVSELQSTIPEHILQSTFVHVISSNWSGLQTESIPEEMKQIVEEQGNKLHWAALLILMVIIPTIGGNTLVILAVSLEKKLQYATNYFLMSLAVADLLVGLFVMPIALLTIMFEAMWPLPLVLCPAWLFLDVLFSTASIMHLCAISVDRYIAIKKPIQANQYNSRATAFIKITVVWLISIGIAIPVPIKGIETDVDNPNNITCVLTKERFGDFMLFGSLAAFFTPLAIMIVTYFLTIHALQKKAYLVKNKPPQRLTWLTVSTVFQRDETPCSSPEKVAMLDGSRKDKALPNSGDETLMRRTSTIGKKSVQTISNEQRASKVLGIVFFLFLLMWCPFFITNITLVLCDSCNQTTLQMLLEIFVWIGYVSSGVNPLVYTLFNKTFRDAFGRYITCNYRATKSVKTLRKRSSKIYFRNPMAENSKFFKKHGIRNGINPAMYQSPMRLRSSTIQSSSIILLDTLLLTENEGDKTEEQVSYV

Set 1 — concentration: 10 µM; endpoint: inhibition
SMILES: O=C(O)[C@@H]1[C@@H](Cn2nnc3ccccc3c2=O)CC[C@H]1C(=O)c1ccc(OCCC2CCOCC2)cc1
target = Alpha-1A adrenergic receptor (ADRA1A, Homo sapiens, UniProt P35348); test = binding, radioligand binding; value = -13.2%
target = 5-hydroxytryptamine receptor 1D (HTR1D, Homo sapiens, UniProt P28221); test = ligand displacement, radioligand; value = 14%
target = 5-hydroxytryptamine receptor 2B (HTR2B, Homo sapiens, UniProt P41595); test = binding, radioligand binding; value = 36.2%
target = Sigma non-opioid intracellular receptor 1 (SIGMAR1, Homo sapiens, UniProt Q99720); test = binding, radioligand binding; value = 29.3%
target = Sigma intracellular receptor 2 (TMEM97, Homo sapiens, UniProt Q5BJF2); test = binding, radioligand binding; value = 39.3%
target = D(2) dopamine receptor (DRD2, Homo sapiens, UniProt P14416); test = binding, radioligand binding; value = -5.06%
target = Beta-2 adrenergic receptor (ADRB2, Homo sapiens, UniProt P07550); test = binding, radioligand binding; value = 24.4%
target = Histamine H3 receptor (HRH3, Homo sapiens, UniProt Q9Y5N1); test = binding, radioligand binding; value = 4.06%
target = Muscarinic acetylcholine receptor M5 (CHRM5, Homo sapiens, UniProt P08912); test = binding, radioligand binding; value = 1.82%
target = Beta-1 adrenergic receptor (ADRB1, Homo sapiens, UniProt P08588); test = binding, radioligand binding; value = -14.4%
target = 5-hydroxytryptamine receptor 6 (HTR6, Homo sapiens, UniProt P50406); test = binding, radioligand binding; value = 26.9%
target = Alpha-2A adrenergic receptor (ADRA2A, Homo sapiens, UniProt P08913); test = binding, radioligand binding; value = 5.09%
target = D(3) dopamine receptor (DRD3, Homo sapiens, UniProt P35462); test = binding, radioligand binding; value = -4.94%
target = D(4) dopamine receptor (DRD4, Homo sapiens, UniProt P21917); test = binding, radioligand binding; value = 21.9%

Set 2 — observed: enzyme activity; mode: inhibitor; concentration: 77 µM; reference: untreated; endpoint: remaining activity
Target: DNA polymerase theta, ATPase domain (POLQ, Homo sapiens, UniProt O75417)
UniProt O75417, sequence (whole entry, unmodified, looked up): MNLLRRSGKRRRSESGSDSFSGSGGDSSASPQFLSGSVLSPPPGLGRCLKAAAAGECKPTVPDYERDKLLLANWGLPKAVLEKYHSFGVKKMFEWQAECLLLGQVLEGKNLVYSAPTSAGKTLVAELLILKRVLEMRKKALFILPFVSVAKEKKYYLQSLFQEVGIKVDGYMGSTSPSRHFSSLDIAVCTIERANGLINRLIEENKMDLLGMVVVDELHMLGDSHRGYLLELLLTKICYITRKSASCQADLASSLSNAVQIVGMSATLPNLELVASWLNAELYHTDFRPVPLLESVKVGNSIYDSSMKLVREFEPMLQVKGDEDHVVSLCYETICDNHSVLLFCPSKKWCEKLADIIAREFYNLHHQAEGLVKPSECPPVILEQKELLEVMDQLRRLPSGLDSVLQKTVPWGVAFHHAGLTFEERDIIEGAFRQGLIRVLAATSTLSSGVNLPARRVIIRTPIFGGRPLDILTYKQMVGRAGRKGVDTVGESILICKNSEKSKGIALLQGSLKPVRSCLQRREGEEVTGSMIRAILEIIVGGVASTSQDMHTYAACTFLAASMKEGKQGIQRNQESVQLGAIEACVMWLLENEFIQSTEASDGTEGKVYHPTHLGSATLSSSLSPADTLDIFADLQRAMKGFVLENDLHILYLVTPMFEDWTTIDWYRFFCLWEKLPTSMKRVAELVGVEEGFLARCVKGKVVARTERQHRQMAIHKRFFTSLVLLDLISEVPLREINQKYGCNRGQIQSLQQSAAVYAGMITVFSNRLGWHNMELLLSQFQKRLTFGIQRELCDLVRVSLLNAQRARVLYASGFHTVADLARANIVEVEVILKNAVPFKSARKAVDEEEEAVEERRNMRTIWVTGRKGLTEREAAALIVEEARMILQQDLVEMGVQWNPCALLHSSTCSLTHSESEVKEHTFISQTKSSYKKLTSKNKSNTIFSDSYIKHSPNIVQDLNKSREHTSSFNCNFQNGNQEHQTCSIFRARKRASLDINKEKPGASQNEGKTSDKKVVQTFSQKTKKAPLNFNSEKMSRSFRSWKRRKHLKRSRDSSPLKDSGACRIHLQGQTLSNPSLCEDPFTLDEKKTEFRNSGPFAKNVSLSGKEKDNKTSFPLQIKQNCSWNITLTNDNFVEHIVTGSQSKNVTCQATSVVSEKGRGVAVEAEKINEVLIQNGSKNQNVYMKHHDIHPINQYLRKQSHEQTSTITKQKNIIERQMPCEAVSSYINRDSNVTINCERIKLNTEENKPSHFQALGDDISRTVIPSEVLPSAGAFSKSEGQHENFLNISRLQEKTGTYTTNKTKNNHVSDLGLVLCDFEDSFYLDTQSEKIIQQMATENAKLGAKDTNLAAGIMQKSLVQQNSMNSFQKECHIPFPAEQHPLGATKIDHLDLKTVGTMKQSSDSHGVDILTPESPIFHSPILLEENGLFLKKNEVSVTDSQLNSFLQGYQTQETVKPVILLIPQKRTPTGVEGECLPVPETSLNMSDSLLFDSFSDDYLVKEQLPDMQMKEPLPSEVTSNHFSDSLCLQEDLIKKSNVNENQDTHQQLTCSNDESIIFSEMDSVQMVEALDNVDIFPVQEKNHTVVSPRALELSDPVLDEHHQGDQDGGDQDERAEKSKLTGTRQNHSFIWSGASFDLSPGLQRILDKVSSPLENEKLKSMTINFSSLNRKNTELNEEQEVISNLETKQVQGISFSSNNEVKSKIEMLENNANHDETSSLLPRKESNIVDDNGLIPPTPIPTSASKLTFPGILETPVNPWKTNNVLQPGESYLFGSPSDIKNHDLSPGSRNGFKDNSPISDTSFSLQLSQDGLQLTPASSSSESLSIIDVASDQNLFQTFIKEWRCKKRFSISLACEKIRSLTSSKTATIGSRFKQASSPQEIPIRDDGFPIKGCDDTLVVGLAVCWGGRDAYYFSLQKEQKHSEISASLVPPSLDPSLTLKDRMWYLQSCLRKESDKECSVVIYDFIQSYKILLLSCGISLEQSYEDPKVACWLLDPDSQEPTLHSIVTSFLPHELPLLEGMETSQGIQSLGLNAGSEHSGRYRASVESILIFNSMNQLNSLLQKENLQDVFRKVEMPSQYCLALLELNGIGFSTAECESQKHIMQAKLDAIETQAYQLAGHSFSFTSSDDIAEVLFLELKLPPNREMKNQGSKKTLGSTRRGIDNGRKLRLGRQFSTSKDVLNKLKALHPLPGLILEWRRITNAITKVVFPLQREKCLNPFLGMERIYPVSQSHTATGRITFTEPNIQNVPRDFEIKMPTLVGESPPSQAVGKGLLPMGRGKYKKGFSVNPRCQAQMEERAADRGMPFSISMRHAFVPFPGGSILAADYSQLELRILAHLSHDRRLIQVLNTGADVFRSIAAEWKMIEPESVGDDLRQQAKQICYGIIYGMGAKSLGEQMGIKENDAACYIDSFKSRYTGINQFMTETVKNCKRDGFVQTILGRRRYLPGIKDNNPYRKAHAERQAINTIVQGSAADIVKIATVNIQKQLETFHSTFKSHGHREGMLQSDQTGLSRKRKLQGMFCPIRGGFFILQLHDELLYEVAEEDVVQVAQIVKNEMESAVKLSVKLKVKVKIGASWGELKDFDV
Structure (SMILES) = O=C1NC(=O)c2c1c1c3ccccc3[nH]c1n1cncc21; value = 110%
Structure (SMILES) = CN(C)CC(c1ccc(O)cc1)C1(O)CCCCC1 (stereo not shown); value = 101%
Structure (SMILES) = CC(C)CCNC(=O)[C@H](CC(C)C)NC(=O)[C@H]1O[C@@H]1C(=O)O; value = 94.5%
Structure (SMILES) = CC(O)Cn1cnc2c1c(=O)n(C)c(=O)n2C (stereo not shown); value = 101%
Structure (SMILES) = CCCc1cc(C(N)=S)ccn1; value = 91.4%
Structure (SMILES) = O=C1C(=O)N(Cc2ccc(Cl)c(Cl)c2)c2ccccc21; value = 100%
Structure (SMILES) = COc1cc(NS(=O)(=O)c2ccc(N)cc2)ncn1; value = 99.5%
Structure (SMILES) = CNCc1ccc(-c2[nH]c3cc(F)cc4c3c2CCNC4=O)cc1; value = 77.3%
Structure (SMILES) = CCOc1nc2cccc(C(=O)O)c2n1Cc1ccc(-c2ccccc2-c2noc(=O)[nH]2)cc1; value = 73.6%
Structure (SMILES) = NC(=S)N/N=C/c1ncccc1N; value = 99.1%
Structure (SMILES) = COc1ccc(OC)c(C(O)CNC(=O)CN)c1 (stereo not shown); value = 97.2%
Structure (SMILES) = CCOC(=O)NCCCC(=O)NCCc1ccccc1; value = 99.5%
Structure (SMILES) = C[C@@H]1O[C@@H](OC[C@H]2O[C@@H](Oc3c(-c4ccc(O)c(O)c4)oc4cc(O)cc(O)c4c3=O)[C@H](O)[C@@H](O)[C@@H]2O)[C@H](O)[C@H](O)[C@H]1O; value = 98.6%
Structure (SMILES) = COc1cc(NC(C)CCCN)c2ncccc2c1 (stereo not shown); value = 89.4% and 97%

Set 3 — cell line: mouse MPNST tumor cells; technique: high-content immunofluorescence imaging; refers to: nuclear SOX9; concentration: 10 µM; time: 12 h; notes: mean of 2 replicates; reference: DMSO control; reading: higher = more nuclear SOX9; endpoint: nuclear SOX9 intensity
SMILES = CCc1cc(C(C)=O)c(O)cc1OCCCCCC(C)(C)c1nn[nH]n1; value = 97.7 % of DMSO
SMILES = CC1CCN(CCCC(=O)c2ccc(F)cc2)CC1; value = 106 % of DMSO
SMILES = CC(C)(O)c1ccn2c(-c3ccc(F)c(-c4ccc(F)cc4C#N)c3)cnc2c1F; value = 150 % of DMSO
SMILES = N=C(N)NC(=O)Cc1c(Cl)cccc1Cl; value = 102 % of DMSO and 95.1 % of DMSO
SMILES = Oc1c(I)cc(Cl)c2cccnc12; value = 92.4 % of DMSO
SMILES = CN1Cc2c(C(=O)OC(C)(C)C)ncn2-c2ccsc2C1=O; value = 92.7 % of DMSO
SMILES = CN(C)C(=O)n1nnnc1Cc1ccc(-c2ccccc2)cc1; value = 142 % of DMSO
SMILES = Cc1ccc(N(CC2=NCCN2)c2cccc(O)c2)cc1; value = 118 % of DMSO and 119 % of DMSO
SMILES = O=S1(=O)N[C@H]2CCCN2c2ccccc21; value = 102 % of DMSO
SMILES = Cc1ccc2cccc(NC(=O)c3ccc(OC(C)C)cc3)c2n1; value = 114 % of DMSO

Set 4 — observed: acetyl-histone H4 peptide binding; technique: AlphaScreen displacement; concentration: 50 µM; endpoint: inhibition
Target: Bromodomain-containing protein 4, BD1 (BRD4, Homo sapiens, UniProt O60885)
SMILES = COC(=O)c1[nH]c2ccccc2c1NC(=O)CN(C)CC1OCCO1; value = 3.85%
SMILES = COc1ccc(-c2[nH]c3ncccc3c2CN2CCCC2)cc1; value = 14.4%
SMILES = Nc1nc(Nc2cccc(Cl)c2)sc1C(=O)c1ccc(F)cc1; value = 45%
SMILES = COC(=O)C=Cc1cc(O)ccc1O; value = 5.05%
SMILES = CC[C@@H]1C(=O)N(C)c2cnc(Nc3ccc(C(=O)N[C@H]4CC[C@H](N5CCN(CC6CC6)CC5)CC4)cc3OC)nc2N1C(C)C; value = 99.8%
SMILES = C[C@@H](N)[C@H]1CC[C@H](C(=O)Nc2ccncc2)CC1.Cl.Cl; value = 0.7%
SMILES = c1cncc(-c2[nH]c3ncccc3c2CN2CCOCC2)c1; value = 10.8%
SMILES = Cl.Cl.O=C1c2c(O)ccc(O)c2C(=O)c2c(NCCNCCO)ccc(NCCNCCO)c21; value = 99%
SMILES = COC(=O)C(C)Sc1ccc2nnc(-c3ccc(Cl)cc3)n2n1 (stereo not shown); value = 7.05%
SMILES = COc1ccc(-c2nnc3ccc(SCC(=O)N4CCOCC4)nn23)cc1OC; value = 8.7%
SMILES = O=C(O)Cc1csc(NC(=O)c2ccc(Br)cc2)n1; value = 22.2%
SMILES = CN(c1ccccc1CNc1nc(Nc2ccc3c(c2)CC(=O)N3)ncc1C(F)(F)F)S(C)(=O)=O; value = 99.7%
SMILES = COc1ccc(Nc2nc(N)c(C(=O)c3ccc(Cl)cc3)s2)cc1; value = 63.1%
SMILES = CCCOc1ccc(-c2csc3nc[nH]c(=O)c23)cc1; value = 8.05%
